Results collected from several papers.
Lines come from different studies, so protocols differ. Numbers after ± are the reported error.
GCGR: GCGR (Homo sapiens, UniProt P47871)
B1: ENAH EVH1 domain 1-113 (Homo sapiens, UniProt Q8N8S7); chain MSEQSICQARAAVMVYDDANKKWVPAGGSTGFSRVHIYHHTGNNTFRVVGRKIQDHQVVINCAIPKGLKYNQATQTFHQWRDARQVYGLNFGSKEDANVFASAMMHALEVLNS
UniProt P24530, sequence (whole entry, looked up): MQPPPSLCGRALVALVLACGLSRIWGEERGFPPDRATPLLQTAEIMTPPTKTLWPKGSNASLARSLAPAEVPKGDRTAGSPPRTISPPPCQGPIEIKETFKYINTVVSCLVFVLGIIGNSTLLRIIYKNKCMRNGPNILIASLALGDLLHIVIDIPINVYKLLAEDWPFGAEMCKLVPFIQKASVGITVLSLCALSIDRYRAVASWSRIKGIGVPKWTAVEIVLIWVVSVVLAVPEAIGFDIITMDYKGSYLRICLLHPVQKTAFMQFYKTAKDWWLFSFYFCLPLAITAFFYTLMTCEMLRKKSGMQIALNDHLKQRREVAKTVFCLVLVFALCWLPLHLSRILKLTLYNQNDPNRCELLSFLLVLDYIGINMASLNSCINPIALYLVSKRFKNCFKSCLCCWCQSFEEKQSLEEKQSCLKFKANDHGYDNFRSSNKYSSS

B1 (ENAH EVH1 domain 1-113)
Kd (PCARE peptide (Homo sapiens); tryptophan fluorescence): 5700 nM

TMED10 (Homo sapiens, UniProt P49755)
cross-linked residues (TMED9 (Homo sapiens, UniProt Q9BVK6); cross-linking MS; cells; added: BSPNO): K145 to K160

calcitonin gene-related peptide
concentration difference, delayed vs immediate centrifugation (sandwich ELISA; human, plasma; dose not given, 60 min): no effect

SQETFSDLWKLLPENN
enrichment score (human cyclin F-Cln2 fusion; cell growth, competitive growth sequencing; peptide, Saccharomyces cerevisiae; peptide tiling library; direction not given): 1.5

CYP17A1 C22K/P23T/R20A/R21K (Homo sapiens)
kcat (CC(=O)[C@H]1CC[C@H]2[C@@H]3CCC4=CC(=O)CC[C@]4(C)[C@H]3CC[C@]12C; steady-state kinetics; 37 °C, truncated form, added: progesterone 0 – 50 µM, phosphatidylcholine): 0.0218 ± 0.0005 s⁻¹

EGF (Homo sapiens)
EC50 (EGFR (Homo sapiens, UniProt P00533); Grb2 recruitment BRET ratio, agonist, BRET; HEK293T; transient expression): 10.5 nM

ubiquitin monomer, pS65 (UniProt P0CG48)
UB chain synthesis (PRKN (Homo sapiens, UniProt O60260); UB chain synthesis; relative to: background, higher = more activation): 943 fold

ermE R36E (Saccharopolyspora erythraea)
K0.5 (C[S+](CC[C@H](N)C(=O)O)C[C@H]1O[C@@H](n2cnc3c(N)ncnc32)[C@H](O)[C@@H]1O; steady-state kinetics; pH 7.5): 0.83 µM

SQETFSDLWKLLPENNV (TP53 15-31 (Homo sapiens, UniProt P04637); sequence looked up)
IC50 (MDM2 fragment (Homo sapiens); competition with labeled peptide, competitor, fluorescence polarisation; peptide; 30 min, room temperature): 5220 ± 196 nM

ermE F43A (Saccharopolyspora erythraea)
K0.5 (C[S+](CC[C@H](N)C(=O)O)C[C@H]1O[C@@H](n2cnc3c(N)ncnc32)[C@H](O)[C@@H]1O; steady-state kinetics; pH 7.5): 2.6 µM

RMFPNAPYL
half-life (HLA-A2 peptide complex; complex dissociation, flow cytometry, soluble TCR; peptide; 37 °C): 14.7 h

PDCD1 extracellular , Fc fusion G124S/K131Y/A132I (Homo sapiens)
EC50 (CD274 fragment (Homo sapiens); ELISA): 0.03 nM

CXCL12 (Homo sapiens, UniProt P48061-2)
EC50 (ACKR3 (UniProt P25106); β-arrestin complementation, agonist): 10 nM

GCG glucagon (Homo sapiens)
EC50 (GCGR; receptor stimulation, agonist; HEK293): 1.04 nM

EDNRB (Homo sapiens, UniProt P24530)
mRNA recovery (endothelin-1 mature; RT-qPCR; relative to: non-biotinylated ligand, higher = more recovery): 248 fold

APP Aβ1-42, HiLyte Fluor 488 label (UniProt P05067)
Kd (MAPT (Homo sapiens, UniProt P10636-8); fluorescence polarisation; without microtubules): 6300 ± 1700 nM

ALB/factor IXa aptamer mature, cys34 conjugate K573P, Cys34 oligodeoxynucleotide, annealed aptamer duplex (Homo sapiens)
Kd (FCGRT fragment (Homo sapiens); BLI; pH 5.5, 150 mM NaCl): 280 ± 80 nM

APP Aβ1-40, HiLyte Fluor 488 label (UniProt P05067)
Kd (microtubules, taxol-stabilized (Sus scrofa, UniProt P02550); fluorescence polarisation; quadratic fit, added: taxol): 5330 ± 830 nM

glucagon
EC50 (GCGR; GCGR activation, CRE luciferase reporter, agonist; HEK293; stable human GCGR expression): 0.01 nM

A few entries again:
CXCL12 (Homo sapiens, UniProt P48061-2)
EC50 (ACKR3 (UniProt P25106); β-arrestin complementation, agonist): 10 nM
